Results of several laboratories.
Compare with care: the assays were run in different laboratories.

SMILES | method | medium | concentration | time | pH | fraction unbound
COC1C=COC2(C)Oc3c(C)c(O)c4c(c3C2=O)C2=NC3(CCN(CC(C)C)CC3)NC2=C(NC(=O)C(C)=CC=CC(C)C(O)C(C)C(O)C(C)C(OC(=O)Nc2cccnn2)C1C)C4=O (stereo not shown) | – | human plasma | – | – | – | 0.103
O=C(Nc1ccc(C(F)F)cc1)[C@H](CC1CCCCC1)Nc1nn2c(=O)ccnc2s1 | rapid equilibrium dialysis | mouse plasma | 1 µM | 4 h | – | 0.0044
Nc1nc(SCc2ccc(Cl)cc2)nn1S(=O)(=O)c1ccc2c(c1)CCO2 | equilibrium dialysis | human plasma | 5 µM | 6 h | – | < 0.001
COC1C=COC2(C)Oc3c(C)c(O)c4c(c3C2=O)C2=NC3(CCN(CC(C)C)CC3)NC2=C(NC(=O)C(C)=CC=CC(C)C(O)C(C)C(O)C(C)C(OC(=O)c2cccnc2)C1C)C4=O (stereo not shown) | rapid equilibrium dialysis | mouse plasma | – | – | – | 0.0205
CS(=O)(=O)c1ccc(-c2cc(Cl)c(C(=O)N[C@@H](CNC(=O)CNC(=O)c3cccc(NC(=N)N)c3)C(=O)O)c(Cl)c2)cc1 | equilibrium dialysis | mouse plasma | – | – | – | 0.046
COC1C=COC2(C)Oc3c(C)c(O)c4c(c3C2=O)C2=NC3(CCN(CC(C)C)CC3)NC2=C(NC(=O)C(C)=CC=CC(C)C(O)C(C)C(O)C(C)C(OC(=O)c2cncnc2)C1C)C4=O (stereo not shown) | rapid equilibrium dialysis | mouse plasma | – | – | – | 0.0466
OCC1OC(n2cnc3c(NCc4ccc(Br)s4)ncnc32)C(O)C1O (stereo not shown) | equilibrium dialysis | dog plasma | 0.05 µg/mL | 4 h | pH 7.4 | 0.135
O=C(Nc1nc(C(F)(F)F)co1)C1c2ccccc2Oc2ccccc21 | equilibrium dialysis | human plasma | – | 4 h | pH 7.4 | 0.003
NS(=O)(=O)c1ccc(NC(=O)[C@H](CC2CCCCC2)Nc2nn3c(=O)ccnc3s2)cc1 | rapid equilibrium dialysis | mouse plasma | 1 µM | 4 h | – | 0.022
COc1ccccc1NC(=O)OC1C(C)C(OC)C=COC2(C)Oc3c(C)c(O)c4c(c3C2=O)C2=NC3(CCN(CC(C)C)CC3)NC2=C(NC(=O)C(C)=CC=CC(C)C(O)C(C)C(O)C1C)C4=O (stereo not shown) | rapid equilibrium dialysis | mouse plasma | – | – | – | 0.0012
Cc1nc2ccc(S(=O)(=O)n3nc(SCc4ccc(Cl)cc4)nc3N)cc2s1 | equilibrium dialysis | mouse plasma | 5 µM | 6 h | – | 0.002
[11CH3]N(Cc1ccc(/C=C/C(=O)NO)cc1)CC12CC3CC(CC(C3)C1)C2 | – | baboon plasma | – | 10 min | – | 0.014
CN1CC[C@@H](COc2cnc(C#N)cc2-c2ccn3nc(NC(=O)C4CC4)cc3c2)C1 | – | mouse plasma diluted 25% | 1 µM | 6 h | pH 7.4 | 0.48
COC1C=COC2(C)Oc3c(C)c(O)c4c(c3C2=O)C2=NC3(CCN(CC(C)C)CC3)NC2=C(NC(=O)C(C)=CC=CC(C)C(O)C(C)C(O)C(C)C(OC(=O)Nc2cnccn2)C1C)C4=O (stereo not shown) | rapid equilibrium dialysis | mouse plasma | – | – | – | 0.0418
CNCc1ccc(-c2cc(=O)c3ccc4[nH]c(C(F)(F)F)nc4c3o2)cc1 | – | plasma | – | – | – | 4.6%
O=C(CNC(=O)c1cccc(NC2=NCCCN2)c1)NC[C@H](NC(=O)c1c(Cl)cc(-c2ccccc2)cc1Cl)C(=O)O | equilibrium dialysis | mouse plasma | – | – | – | 0.018
